Measured values pooled from the literature.
A part holds a random share of what one study measured. “And” joins repeats or separate records; there may be more than shown.
Sequence of UniProt Q15746 (whole entry, looked up): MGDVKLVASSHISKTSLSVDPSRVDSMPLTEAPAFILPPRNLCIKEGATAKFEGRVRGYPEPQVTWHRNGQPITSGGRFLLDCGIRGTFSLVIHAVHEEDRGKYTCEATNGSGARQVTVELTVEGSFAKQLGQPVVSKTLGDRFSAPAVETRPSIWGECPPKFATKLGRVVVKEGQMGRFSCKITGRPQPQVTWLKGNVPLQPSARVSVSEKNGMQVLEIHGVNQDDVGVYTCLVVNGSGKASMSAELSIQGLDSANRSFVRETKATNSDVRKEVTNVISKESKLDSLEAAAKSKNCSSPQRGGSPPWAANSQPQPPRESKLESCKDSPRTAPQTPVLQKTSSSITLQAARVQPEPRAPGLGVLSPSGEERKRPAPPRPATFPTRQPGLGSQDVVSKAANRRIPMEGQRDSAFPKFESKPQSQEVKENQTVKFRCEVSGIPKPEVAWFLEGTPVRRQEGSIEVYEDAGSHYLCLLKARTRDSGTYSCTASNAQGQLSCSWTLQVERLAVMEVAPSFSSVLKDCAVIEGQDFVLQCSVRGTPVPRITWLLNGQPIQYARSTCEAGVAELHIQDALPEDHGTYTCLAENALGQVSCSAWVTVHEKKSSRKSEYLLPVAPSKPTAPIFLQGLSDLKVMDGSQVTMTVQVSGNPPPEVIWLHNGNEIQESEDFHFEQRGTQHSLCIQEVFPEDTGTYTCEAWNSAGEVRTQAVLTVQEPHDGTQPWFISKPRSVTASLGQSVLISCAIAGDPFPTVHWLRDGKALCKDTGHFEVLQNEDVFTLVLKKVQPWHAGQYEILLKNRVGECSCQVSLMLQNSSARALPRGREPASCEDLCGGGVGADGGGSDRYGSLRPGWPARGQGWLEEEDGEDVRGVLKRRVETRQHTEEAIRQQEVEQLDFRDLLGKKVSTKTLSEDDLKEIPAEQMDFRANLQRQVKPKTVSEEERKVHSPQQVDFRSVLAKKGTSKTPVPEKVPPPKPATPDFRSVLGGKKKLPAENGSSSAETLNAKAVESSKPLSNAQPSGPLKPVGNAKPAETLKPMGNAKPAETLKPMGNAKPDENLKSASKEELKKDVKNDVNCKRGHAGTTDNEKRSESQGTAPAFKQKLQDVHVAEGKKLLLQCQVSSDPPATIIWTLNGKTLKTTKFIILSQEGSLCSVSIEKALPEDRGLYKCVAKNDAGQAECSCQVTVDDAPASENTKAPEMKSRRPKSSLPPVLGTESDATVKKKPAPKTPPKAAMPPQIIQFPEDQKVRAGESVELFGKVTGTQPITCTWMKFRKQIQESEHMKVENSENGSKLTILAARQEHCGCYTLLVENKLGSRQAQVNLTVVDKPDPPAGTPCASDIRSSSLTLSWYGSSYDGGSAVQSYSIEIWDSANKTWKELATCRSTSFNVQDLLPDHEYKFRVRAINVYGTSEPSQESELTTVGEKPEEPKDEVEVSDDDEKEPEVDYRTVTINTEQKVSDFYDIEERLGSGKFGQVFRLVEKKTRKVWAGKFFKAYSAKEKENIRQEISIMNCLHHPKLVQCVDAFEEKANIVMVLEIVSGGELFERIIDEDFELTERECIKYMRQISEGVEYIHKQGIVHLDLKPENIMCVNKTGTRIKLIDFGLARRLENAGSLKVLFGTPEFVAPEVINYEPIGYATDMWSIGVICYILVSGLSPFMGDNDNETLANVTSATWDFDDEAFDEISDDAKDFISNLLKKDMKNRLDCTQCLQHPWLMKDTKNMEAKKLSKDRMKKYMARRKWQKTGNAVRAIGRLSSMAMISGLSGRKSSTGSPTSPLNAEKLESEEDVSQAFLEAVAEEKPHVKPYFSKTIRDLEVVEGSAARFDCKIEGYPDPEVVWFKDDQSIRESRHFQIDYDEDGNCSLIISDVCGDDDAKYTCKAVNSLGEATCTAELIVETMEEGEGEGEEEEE
Sequence of UniProt Q13422 (whole entry, looked up): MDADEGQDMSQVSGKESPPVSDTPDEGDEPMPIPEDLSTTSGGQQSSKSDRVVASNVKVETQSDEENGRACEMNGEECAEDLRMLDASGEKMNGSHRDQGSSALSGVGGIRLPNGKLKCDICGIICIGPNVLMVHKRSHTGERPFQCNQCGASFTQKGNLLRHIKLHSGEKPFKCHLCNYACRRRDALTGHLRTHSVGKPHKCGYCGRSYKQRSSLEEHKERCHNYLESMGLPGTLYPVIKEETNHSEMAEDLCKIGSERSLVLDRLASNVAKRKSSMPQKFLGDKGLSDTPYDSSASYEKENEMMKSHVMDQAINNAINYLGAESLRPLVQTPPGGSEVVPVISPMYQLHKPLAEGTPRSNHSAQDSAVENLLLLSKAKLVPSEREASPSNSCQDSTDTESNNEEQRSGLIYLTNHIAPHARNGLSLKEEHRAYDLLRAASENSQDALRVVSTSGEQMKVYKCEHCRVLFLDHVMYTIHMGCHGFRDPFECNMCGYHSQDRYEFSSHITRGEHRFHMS
Sequence of UniProt Q9UKT9 (whole entry, looked up): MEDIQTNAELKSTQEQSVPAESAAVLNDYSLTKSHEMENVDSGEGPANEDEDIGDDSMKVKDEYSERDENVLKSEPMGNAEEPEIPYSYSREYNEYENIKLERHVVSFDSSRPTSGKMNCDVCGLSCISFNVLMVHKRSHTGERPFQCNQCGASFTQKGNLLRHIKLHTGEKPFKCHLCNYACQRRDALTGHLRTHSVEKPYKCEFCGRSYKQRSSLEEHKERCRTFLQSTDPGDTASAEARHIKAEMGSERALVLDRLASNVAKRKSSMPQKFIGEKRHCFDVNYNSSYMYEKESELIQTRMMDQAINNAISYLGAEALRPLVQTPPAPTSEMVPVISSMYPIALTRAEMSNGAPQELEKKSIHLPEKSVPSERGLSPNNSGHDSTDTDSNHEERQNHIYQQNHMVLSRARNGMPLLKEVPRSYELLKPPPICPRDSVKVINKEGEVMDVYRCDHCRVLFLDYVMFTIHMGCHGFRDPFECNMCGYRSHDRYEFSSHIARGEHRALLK
Sequence of UniProt Q9H2S9 (whole entry, looked up): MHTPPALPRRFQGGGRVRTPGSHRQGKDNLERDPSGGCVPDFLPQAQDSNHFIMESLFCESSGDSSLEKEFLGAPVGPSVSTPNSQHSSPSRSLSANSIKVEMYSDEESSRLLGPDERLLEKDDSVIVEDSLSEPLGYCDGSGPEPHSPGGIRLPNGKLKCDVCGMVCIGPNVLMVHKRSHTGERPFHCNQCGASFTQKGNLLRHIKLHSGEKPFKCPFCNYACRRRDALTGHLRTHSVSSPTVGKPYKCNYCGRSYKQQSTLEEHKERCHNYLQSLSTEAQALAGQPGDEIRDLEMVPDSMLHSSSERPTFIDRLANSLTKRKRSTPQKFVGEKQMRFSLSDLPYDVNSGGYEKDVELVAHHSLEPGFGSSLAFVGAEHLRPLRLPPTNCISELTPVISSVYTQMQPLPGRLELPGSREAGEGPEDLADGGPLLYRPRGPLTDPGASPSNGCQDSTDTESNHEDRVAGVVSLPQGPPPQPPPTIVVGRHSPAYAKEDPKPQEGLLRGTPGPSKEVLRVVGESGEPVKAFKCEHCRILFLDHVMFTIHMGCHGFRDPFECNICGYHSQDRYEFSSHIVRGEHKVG
Sequence of UniProt O14976 (whole entry, looked up): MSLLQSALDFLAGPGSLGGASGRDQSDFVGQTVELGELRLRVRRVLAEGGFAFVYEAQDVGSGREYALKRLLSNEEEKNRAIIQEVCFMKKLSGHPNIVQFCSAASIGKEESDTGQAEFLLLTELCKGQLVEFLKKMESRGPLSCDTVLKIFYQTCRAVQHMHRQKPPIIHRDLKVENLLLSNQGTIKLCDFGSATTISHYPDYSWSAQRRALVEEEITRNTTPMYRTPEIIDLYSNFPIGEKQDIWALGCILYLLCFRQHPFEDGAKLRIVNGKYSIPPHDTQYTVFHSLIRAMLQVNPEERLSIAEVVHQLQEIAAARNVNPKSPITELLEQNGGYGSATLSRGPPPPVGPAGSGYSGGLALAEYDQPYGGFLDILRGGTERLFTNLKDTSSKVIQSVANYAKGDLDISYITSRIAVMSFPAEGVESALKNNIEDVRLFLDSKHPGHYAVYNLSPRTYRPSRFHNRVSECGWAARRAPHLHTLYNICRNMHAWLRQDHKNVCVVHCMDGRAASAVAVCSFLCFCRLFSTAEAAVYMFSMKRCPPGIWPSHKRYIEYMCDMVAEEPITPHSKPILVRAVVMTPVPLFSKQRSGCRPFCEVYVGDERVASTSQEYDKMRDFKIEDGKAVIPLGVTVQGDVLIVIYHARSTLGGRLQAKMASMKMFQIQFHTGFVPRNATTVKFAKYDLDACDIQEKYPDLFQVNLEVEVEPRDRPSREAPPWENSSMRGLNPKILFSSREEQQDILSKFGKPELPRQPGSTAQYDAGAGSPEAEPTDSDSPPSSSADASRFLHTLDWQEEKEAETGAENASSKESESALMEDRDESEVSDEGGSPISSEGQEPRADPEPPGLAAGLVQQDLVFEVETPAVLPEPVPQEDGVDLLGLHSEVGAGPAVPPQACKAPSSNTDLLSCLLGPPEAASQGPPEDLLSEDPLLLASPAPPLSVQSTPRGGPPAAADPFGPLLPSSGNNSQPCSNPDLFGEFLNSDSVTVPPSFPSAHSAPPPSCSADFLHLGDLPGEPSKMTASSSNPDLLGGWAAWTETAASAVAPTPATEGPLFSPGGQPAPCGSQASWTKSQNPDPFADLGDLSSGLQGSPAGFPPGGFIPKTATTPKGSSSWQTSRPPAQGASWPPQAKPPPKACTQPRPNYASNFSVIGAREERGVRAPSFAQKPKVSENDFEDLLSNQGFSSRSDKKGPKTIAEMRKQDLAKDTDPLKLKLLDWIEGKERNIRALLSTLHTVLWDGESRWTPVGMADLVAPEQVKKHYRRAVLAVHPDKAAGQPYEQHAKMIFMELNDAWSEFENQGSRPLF

Set 1
Structure (SMILES): CN1CCN(c2cnc3c(C4CCN(C(=O)c5ccc(OC(F)(F)F)cc5N)CC4)ncnc3c2)CC1
Effect on: cell-free assay
Method: competition with immobilised ligand
Tested at: 1 µM
Quantity: remaining binding
MYLK (Homo sapiens, UniProt Q15746): 88%
PRKG1 (Homo sapiens, UniProt Q13976): 83%
LATS2 (Homo sapiens, UniProt Q9NRM7): 100%
SNRK (Homo sapiens, UniProt Q9NRH2): 87%
RIPK1 (Homo sapiens, UniProt Q13546): 100%
KIT (Homo sapiens, UniProt P10721, V559D/V654A): 84%

Set 2
SMILES: O=C1CCC(N2Cc3cc(C4CCN(Cc5ccccc5)CC4)ccc3C2=O)C(=O)N1 (stereo not drawn)
Mode: degrader
Quantity: remaining protein
CRBN/Zinc finger protein Helios (Homo sapiens, UniProt Q96SW2+Q9UKS7); flow cytometry; primary human regulatory T cells; 1 µM, 3 h: 87.5%
Zinc finger protein Eos (IKZF4, Homo sapiens, UniProt Q9H2S9); HiBiT; HEK293; 1 µM, 3 h: 124%
Zinc finger protein Aiolos (Homo sapiens, UniProt Q9UKT9); HiBiT; HEK293; 0.1235 µM: 88.2% and 83.7%
DNA-binding protein Ikaros (Homo sapiens, UniProt Q13422); HiBiT; HEK293; 10 µM: 105% and 95.5%
CSNK1A1 (Homo sapiens, UniProt P48729); HiBiT; HEK293; 3.333 µM, 6 h: 84.5%
GSPT1 (Homo sapiens, UniProt P15170); HiBiT; HEK293; 10 µM, 6 h: 109%

Set 3
Target: Serine/threonine-protein kinase TAO3 (TAOK3, Homo sapiens, UniProt Q9H2K8)
Effect on: enzyme activity
Mode: inhibitor
Tested at: 0.5 µM
Baseline: control
Quantity: remaining activity
Residues (Q9H2K8 1-898): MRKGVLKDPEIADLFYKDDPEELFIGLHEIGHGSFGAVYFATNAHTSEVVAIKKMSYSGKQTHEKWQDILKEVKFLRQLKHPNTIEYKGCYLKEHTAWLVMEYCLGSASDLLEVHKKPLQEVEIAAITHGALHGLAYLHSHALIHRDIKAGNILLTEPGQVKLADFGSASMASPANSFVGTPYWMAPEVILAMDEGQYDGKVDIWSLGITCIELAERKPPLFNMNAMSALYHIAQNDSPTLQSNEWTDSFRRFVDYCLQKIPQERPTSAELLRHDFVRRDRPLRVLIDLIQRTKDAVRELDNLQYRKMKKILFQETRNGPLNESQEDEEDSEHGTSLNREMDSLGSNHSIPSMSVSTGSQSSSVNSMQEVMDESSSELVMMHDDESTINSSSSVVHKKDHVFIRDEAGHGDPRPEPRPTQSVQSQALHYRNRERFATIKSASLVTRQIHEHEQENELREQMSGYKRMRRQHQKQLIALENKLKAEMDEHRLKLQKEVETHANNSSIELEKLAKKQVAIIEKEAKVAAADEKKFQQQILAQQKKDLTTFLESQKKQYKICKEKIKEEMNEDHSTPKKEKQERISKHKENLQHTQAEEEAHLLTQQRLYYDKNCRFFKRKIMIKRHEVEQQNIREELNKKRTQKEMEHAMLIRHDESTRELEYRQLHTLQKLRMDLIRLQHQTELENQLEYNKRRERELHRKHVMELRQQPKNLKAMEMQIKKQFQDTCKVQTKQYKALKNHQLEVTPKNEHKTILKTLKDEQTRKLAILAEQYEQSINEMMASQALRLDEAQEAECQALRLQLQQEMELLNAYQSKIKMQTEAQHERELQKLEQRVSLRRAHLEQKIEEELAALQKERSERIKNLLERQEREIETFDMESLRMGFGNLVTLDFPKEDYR
Cn1sc(=O)n(Cc2ccccc2)c1=O: 101%
COc1cc2ncnc(Nc3ccc(Oc4ccccc4)cc3)c2cc1OC: 102%
COc1cc2nccc(Oc3ccc(NC(=S)NC(=O)c4ccccc4C)cc3)c2cc1OC: 87.9%
Nc1ccc2ncnc(NCCc3ccc(Oc4ccccc4)cc3)c2c1: 102%
CNC(=O)c1cc(Oc2ccc(NC(=O)Nc3ccc(Cl)c(C(F)(F)F)c3)cc2)ccn1: 63.5%
COc1ccc(C(=O)Nc2sc3c(c2C(N)=O)CCCC3)cc1OC: 100%
CN(C)c1ccc(C=C2C(=O)Nc3ccccc32)cc1: 95.1%
COc1ccc(OC)c2c(=S)c3ccccc3[nH]c12: 92.7%
Nc1[nH]nc2nc3ccccc3nc12: 97.1%
Cc1ccc(Nc2nccc(N(C)c3ccc4c(C)n(C)nc4c3)n2)cc1S(N)(=O)=O: 55.5%
O=c1c2ccccc2[nH]c(=S)n1CCN1CCC(=C(c2ccc(F)cc2)c2ccc(F)cc2)CC1: 92.4%
COc1cc2ncnc(Nc3ccc(F)c(Cl)c3)c2cc1OCCCN1CCOCC1: 99.5%
CC(C)[C@H](CO)Nc1nc(Nc2cc(N)cc(Cl)c2)c2ncn(C(C)C)c2n1: 86.9%
N#CC(C#N)=C(N)/C(C#N)=C/c1ccc(O)cc1: 102%

Set 4
SMILES: CC#CC(=O)N1CCC[C@H]1c1nc(-c2ccc(C(=O)Nc3ccccn3)cc2)c2c(N)nccn12
Mode: inhibitor
Tested at: 1 µM
Quantity: inhibition
EPHA4 (Homo sapiens, UniProt P54764); enzyme activity: 0%
PHKG1 (Homo sapiens, UniProt Q16816); enzyme activity: 0%
PIK3C2G (Homo sapiens, UniProt O75747); enzyme activity: 10%
MYLK (Homo sapiens, UniProt Q15746); enzyme activity: 10%
BUB1 (Homo sapiens, UniProt O43683); enzyme activity: 11%
GAK (Homo sapiens, UniProt O14976); enzyme activity: 0%
MAP2K5 (Homo sapiens, UniProt Q13163); enzyme activity: 74%
EIF2AK4 (Homo sapiens, UniProt Q9P2K8, S808G): 12%
ERN1 (Homo sapiens, UniProt O75460); enzyme activity: 51%
NEK10 (Homo sapiens, UniProt Q6ZWH5); enzyme activity: 0%

Excerpt of the above (set 3):
COc1cc2nccc(Oc3ccc(NC(=S)NC(=O)c4ccccc4C)cc3)c2cc1OC: 87.9%
COc1cc2ncnc(Nc3ccc(F)c(Cl)c3)c2cc1OCCCN1CCOCC1: 99.5%
COc1ccc(C(=O)Nc2sc3c(c2C(N)=O)CCCC3)cc1OC: 100%
CNC(=O)c1cc(Oc2ccc(NC(=O)Nc3ccc(Cl)c(C(F)(F)F)c3)cc2)ccn1: 63.5%
